Published values collected from several papers.
A part holds a random share of what one study measured.

Set 1 — technique: EMSA with sequencing; form: double-stranded DNA, one strand shown; medium: in vitro; tested at: 10 and 20 nM; baseline: negative control set to 0; direction: higher = stronger binding
Target: Hepatocyte nuclear factor 3-alpha (Foxa1, Mus musculus, UniProt P35582, residues 1-468, full length assumed)
Setting: whole designed probe, mean of two concentrations, ends assumed
Shared flanks, not repeated: GTGAGCGGTGCCCATTGATGGGGAAC … TTTCACTGGGATCGTGGGGAC
Target sequence (chain): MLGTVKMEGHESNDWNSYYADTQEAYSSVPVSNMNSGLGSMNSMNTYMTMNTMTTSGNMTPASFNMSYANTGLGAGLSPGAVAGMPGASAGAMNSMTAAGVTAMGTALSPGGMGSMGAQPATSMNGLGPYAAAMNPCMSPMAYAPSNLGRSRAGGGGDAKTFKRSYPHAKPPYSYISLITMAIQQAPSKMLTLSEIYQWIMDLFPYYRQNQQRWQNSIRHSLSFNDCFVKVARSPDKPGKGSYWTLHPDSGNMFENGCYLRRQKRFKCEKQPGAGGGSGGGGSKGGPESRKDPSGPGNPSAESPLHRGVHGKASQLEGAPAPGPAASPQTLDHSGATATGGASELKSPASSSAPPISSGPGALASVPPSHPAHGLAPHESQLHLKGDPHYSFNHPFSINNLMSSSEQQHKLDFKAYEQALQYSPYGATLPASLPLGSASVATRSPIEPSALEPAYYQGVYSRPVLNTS
`AAGTTGAATTGCTTGTCACGTACCATAGACTGAGGTCTGTGGCTGCAGTTGCCTGCCATTTCAGACAGATGATTCATCTTATAAACAGATTATGTAAATATGTTATTGATAAATACAGTATGGTACTGTAAATGTATTTTCTCTTTATGATTTTCTTTAAAATATTTTTCTTTCTCGGCCAGCACTTTGGGAG` — result for “normalised bound fraction”: 0.289 ratio.
`CCCGGAGGACCCGACCGGAGAGGGCGAGAGGAGGAGGAGCCCGGGTGGCGGGAAGCGAGCCCAGGTTCCCGCGGCCTTGCGAGGGCACGCAGGGCAATCTGTGCTTTATCTTTCGCAGCGGCGATGAGCTGGTGACTTTTGGGGGTCATCCTGAGGGACATAGACGAAACTGGTTGGGAGGTAGTTAATTGCT`: “normalised bound fraction” -0.0675 ratio.
`ATCTTCCCCCTCTTCCTTGCCCCACCAGCTCACCTTCCCGGGTTATTTGCAGATAGGAAAATAAATAAAGCCGGCATTCGTTAACCCTCTTCTGGCGCAAACTGCTGTTTGCTCTGGATGAATCATGGTCCTTTGGCGACGCCAGGCCGGGCGTAGACAAAGCACCGTGTCAGGGCCATGATCCGGGGTGGCC`: “normalised bound fraction” 0.344 ratio.
`GAGCAGGTGATAGCTCTTAAACAACCAGCCAGTCCCAGGTTTTCAGCCCAGTGTTTGTTCACTTATCCCAGACGCTTGACTCACGAGGGACCGTGTTTATACTGGCTCTGTCCCAGGGTCACTTTGGTTGAGTGGTATCCATTGGTGTGGCTCCTACAGCAAAAGACCAAGTCCTGATGCCAAGAGAGATTAG` — result for “normalised bound fraction”: 0.14 ratio.
`GGAAGGAGAATATCTCTGCTACTTTATTTTTGTGTATTAGCTGATTGTTTCACGTGAAGAATGCTCACATGGTTTTTGCAATGTGCTGGCATATGTTGACATATTGATGCGTAGATGTGTTTGTGTGTTTGGTTTTAGGCAAATGGCACCAAGGCTTGAACTGCGACTCCCGAAGTGACCAGTGCCACCATCC` — result for “normalised bound fraction”: 0.199 ratio.
`TTACCGAAGATAGGAATTTCTTGCTTTTATTAAAACTGACCCAAATGTAATCCAATCAGGATTGCAAGATGTTATATTTGACCTATAAATATAAGTAAACATGGCTCTCTTTATCTGGGAGCCATTTGTTGTGAAGGCAGAATTCCTTCATATATGTTTTACTGTTGCAGATAAAACTCAGTATTAAAAAAAT`: “normalised bound fraction” 0.261 ratio.
`TTTCTGCTGGAAAATTCTATCTGTCAATAGAGTTCTTAAAAGGATTTGTATTAAGCCTTCCACAGATACTCTGATATTAAAATCAGGTCTGAGTAAACAGGTACATTCTGTGTAGTTAAAATTAAATACTGCTATAAATATGCCCAGTGGGGTAATCCAATTTACTAGTCACTTCAGAGCTGATATGAAGGTC`: “normalised bound fraction” 0.242 ratio.
For `CTCAGATGGAACAGATGACCAGGGGTGACTCAGGACAGAGCAGGTGACCAGGGGAACAGATGTGAACTGCTGATTAGAACTGGTGGAAAAAGTTGTTTACTGAAACTATGGGCGAGGAGAATGAGGAAGTTAAACTTTAAAATGGAGAACAAAGAACTGAACATACTGACATACTGATTCTTTGAAGAGAAAT`, “normalised bound fraction” read 0.116 ratio.

Set 2 — technique: protein-binding microarray; form: double-stranded DNA, one strand shown; medium: in vitro; tested at: 940 nM top; setting: 60-bp whole probe; added: salmon DNA 0.4 mg/ml; baseline: random background probes; direction: higher = stronger binding; shared flanks, not repeated: GCCTAGCAC … GTCTTGATTCGCTTGACGCTGCTG
Target: Interferon regulatory factor 5, full length, phosphomimetic (IRF5, Homo sapiens, UniProt Q13568-2, residues 1-514, S451D/S453D/S456D/S462D)
For `GACGGTTTCGGATCCGGGACGTGCTAG`, “fitted relative affinity” read 7.92 z-score.
`GACGGTTTCCTTCCCCTGACGTGCTAG`: “fitted relative affinity” 1.57 z-score.
For `TTAGGCTTCGGTTTCGGTTAGTGCTAG`, “fitted relative affinity” read 7.58 z-score.
`TTAGGTTTCCTTTTCCCTTAGTGCTAG` — result for “fitted relative affinity”: 2.56 z-score.
For `TTGGATTTCAGACTGGATTAGTGCTAG`, “fitted relative affinity” read -0.499 z-score.
`GACGGTTTCGACTAGCGGGACGTGCTA`: “fitted relative affinity” 9.12 z-score.
`GACGTACTGAGTTTCGAGACGTGCTAG`: “fitted relative affinity” 2.75 z-score.
`GTAGAACTGAGTTTCGATTAGTGCTAG` — result for “fitted relative affinity”: 7.49 z-score.
For `AGCTCTTTCGTTACTTCCTCGTGCTAG`, “fitted relative affinity” read 2.91 z-score.
`TAAGATTTCGGGACTGGATTAGTGCTA` — result for “fitted relative affinity”: 0.4 z-score.
Under “fitted relative affinity”, `TCATTTTACTTTCTGAAACTGTGCTAG` is recorded as 1.53 z-score.
`GACGGTTTCGGGTTTCGGAACGTGCTA` — result for “fitted relative affinity”: 8.32 z-score.
`TTAGTTATCAGTATCGATTAGTGCTAG` — result for “fitted relative affinity”: 4.92 z-score.
`TTAGGTTTCTACTTTCGGTTAGTGCTA`: “fitted relative affinity” 6.18 z-score.
`TACGAACTGAGTCTCGAGACGTGCTAG`: “fitted relative affinity” 1.08 z-score.
`TTAGGTCGCGGTTTCGGTTAGTGCTAG`: “fitted relative affinity” 6.96 z-score.
`TTAGGTTTCGGTTCCGCTTAGTGCTAG`: “fitted relative affinity” 14.2 z-score.
`GACGGTTTCGACACTGTGGACGTGCTA` — result for “fitted relative affinity”: 6.3 z-score.
`TTAGGACTGGGGACAGGGTTAGTGCTA` — result for “fitted relative affinity”: -0.0454 z-score.
For `GACGATATCAGACTCGAGACGTGCTAG`, “fitted relative affinity” read -0.426 z-score.
Under “fitted relative affinity”, `ATTTTTATCAAATGTGGGATTGTGCTA` is recorded as -0.148 z-score.
Under “fitted relative affinity”, `TTAGGACTTCTACTGCTTTAGTGCTAG` is recorded as 0.231 z-score.
`TTAGATTTCAGTATCGATTGGTGCTAG` — result for “fitted relative affinity”: 5.75 z-score.
`TCAGCTTCCATTTTCTGACTGTGCTAG` — result for “fitted relative affinity”: 0.755 z-score.
`GCAGACTACCTATGAGTATCGTGCTAG`: “fitted relative affinity” 0.451 z-score.

Set 3 — technique: RNA Bind-n-Seq; form: RNA; medium: in vitro; tested at: 365 nM; baseline: no-protein control; direction: higher = stronger binding
Target: RNA binding protein fox-1 homolog 2, RRM domain, GST-SBP tag (RBFOX2, Homo sapiens, UniProt O43251-10, residues 100-194)
Setting: natural RNA segment, single round, ends assumed
Shared flanks, not repeated: GGGAGUUCUACAGUCCGACGAUC … UGGAAUUCUCGGGUGCCAA
Target sequence (chain): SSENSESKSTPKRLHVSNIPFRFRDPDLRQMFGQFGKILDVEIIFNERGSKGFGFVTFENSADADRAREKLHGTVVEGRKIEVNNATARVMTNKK
`AAUUUACUAUUUUUAAAAUAUUUUGCUGCUUCUGUUCUGGGUCUGAAUUCCCUUUUGUGCCAGAUGCCAGUACUGUCUGCCCAUUGGCUCCAGGGGCUGUAUGGGCAGAU` — result for “RBNS enrichment (R)”: 0.27.
For `AUUUUAGUAGAGAUGAAGUGUCACUAUGUUACCAAGGCUGGUCUCAAACUCCUAAACUCAGAUGAUCCUCCUGCCUCGGCCUCCCAAAGUGCUGGAAUUAGCCUGGCCAA`, “RBNS enrichment (R)” read 0.567.
For `UUUAGGUGGAACUAUUUUCAGUGAAAUUUUCAAAAGGUAUUAACAGCACAGACAGUGUUUUUGACCCUGACAGCCCUGGCUUAGCUUUUGGCUUCCAUGAAUCAGUACUG`, “RBNS enrichment (R)” read 0.336.
For `GUCCCCAAGUCUGCUAAUUAAGGGCCCACUUCUACUUUCUAGUCGCACUUCUGAAAUUCCAUAUUUUGUUUGCUGGGGCCUGAGUUUGCUGGCUUUUAAAAUAUAGAUCA`, “RBNS enrichment (R)” read 1.18.
For `UAUGCAUCAACUCAUUGGGCUCUUGGCUGCUCACAAGGCAAAUUUGACUUGGAAAGACUUUCAUCUCCUUGGAACCAAGACUUCCUGAGUCCCCCUCACCCUGGCCCUGU`, “RBNS enrichment (R)” read 0.948.
`UUUUCUAGACCUGUUUUGCUUUUGUAACUUGAAGAUAUUUAUUCUGGGUUUUGUAGCAUUUUUAUUAAUAUGGUGACUUUUUAAAAUAAAAACAAACAAACGUUGUCCUA` — result for “RBNS enrichment (R)”: 0.883.
`UCCUUGCGCAUGUGCACUCGCUCGCAGACUGAUGACCCUGCUUGCUGCAGAUGAAUGGUCAACGCGAGCUAGGUUAGUUAGUGUGAUGUAUAAGGCGCCAUCAUUCCUCA` — result for “RBNS enrichment (R)”: 0.657.
Under “RBNS enrichment (R)”, `CUUGGGUGACUGAUGGUUUAACUUGGUAAGUUGUAAUCUUUCCUGAAAGAGGAAGGAGCUGAAGUUGGUUGGCCCUGCUGCACCCCCUUACAAGGUUGUGAGGCCCUCUC` is recorded as 0.231.
`GCUGACUUUGCAGUUUGCUUGUGCUAUGACAUUUAUUGUAGGUGCUAUUUAGGGUAGGCUUAAAGUGCUGGGUGGUGAUUUGAGUUCAAACAAUAAAAAAUUGUAUUUUU`: “RBNS enrichment (R)” 0.777.
For `GUUCCAAGGGUCCCCAGUGCUUCCCAUUCAGCAUCCCCAGGGAGCCCCCAAAGGUACUGAAAAGUCUCUGAUGCUCCUACUCCUGGAAAGAAGUCUGGGAAGCCCCUUUC`, “RBNS enrichment (R)” read 0.32.
`UAGACCCUUCAUCUCUUACUUGAUAGACUUACUAAUAAAAUGUGAAGACUAGACCAAUUGUCAUGCUUGACACAACUGCUGUGGCUGGUUGGUGCUUUGUUUAUGGUAGU` — result for “RBNS enrichment (R)”: 0.38.
Under “RBNS enrichment (R)”, `GGAACAGAAAUCCUUGAACUUUUUAUUUGGCGUGUGCCAUGUUAUGAUCAUGUACCUUUUCAAUAAGGGGAGAUAGUAUCUUUAAAGUCAAUGUCUAGCCAAGAGUUUAG` is recorded as 0.473.

Set 4 — technique: protein binding microarray; form: double-stranded DNA, one strand shown; medium: in vitro; tested at: not given; baseline: not given; direction: higher = stronger binding
Target: Histone acetyltransferase KAT6A, both winged helices, GST fusion (KAT6A, Homo sapiens, UniProt Q92794, residues 1-181)
Setting: 8-mer, flanks averaged, mean of 2 arrays, mostly near background
Construct (chain): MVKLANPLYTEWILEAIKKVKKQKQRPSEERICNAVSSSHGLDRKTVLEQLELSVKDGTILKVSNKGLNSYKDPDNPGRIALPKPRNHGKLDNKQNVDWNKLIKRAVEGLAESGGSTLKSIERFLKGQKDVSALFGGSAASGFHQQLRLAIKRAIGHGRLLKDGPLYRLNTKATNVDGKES
With `CTTTAGCC` the E-score was 0.0128.
For `CTCATCTA`, the E-score was -0.23.
The E-score of `CGCTTAGC` is reported as 0.272.
For `ACTCGGGG`, the E-score was 0.0344.
`AATATGGA` gave an E-score of -0.0742.
For `AATCGGGT`, the E-score was 0.103.
With `GTACCAAA` the E-score was -0.089.
The E-score of `CCATCGAC` is reported as -0.128.
`AATTTTCC` gave an E-score of 0.0331.
`CACCTCGA` has an E-score of -0.0861.
For `CTGCTAAC`, the E-score was -0.168.
`AGGTGAGG` has an E-score of -0.0874.
With `CGGTCGAG` the E-score was 0.101.
`GCGATAAA` has an E-score of 0.0527.
`AATAGCAG` gave an E-score of -0.239.
For `CCCCGCGC`, the E-score was 0.326.
For `CATAGATC`, the E-score was -0.0926.
With `GTAAGTGA` the E-score was -0.0752.
With `CAGGGCAC` the E-score was -0.13.
`CTCCCCAA` has an E-score of -0.172.
`TAAAGCCA` has an E-score of -0.0818.
`CAACCTCA` gave an E-score of -0.199.
`AGGGGCGA` gave an E-score of -0.0213.
`AGCTAGCA` has an E-score of -0.0986.
The E-score of `GCATCACA` is reported as 0.0431.

Repeated from above (set 2):
For `TTAGGCTTCGGTTTCGGTTAGTGCTAG`, “fitted relative affinity” read 7.58 z-score.
`TTAGGTTTCGGTTCCGCTTAGTGCTAG`: “fitted relative affinity” 14.2 z-score.
`TCAGCTTCCATTTTCTGACTGTGCTAG` — result for “fitted relative affinity”: 0.755 z-score.
`GACGGTTTCGACACTGTGGACGTGCTA` — result for “fitted relative affinity”: 6.3 z-score.
For `GACGGTTTCGGATCCGGGACGTGCTAG`, “fitted relative affinity” read 7.92 z-score.
